Measured values from different studies.
Parts stem from different laboratories: compare values within a part only. Positions count from the first letter of the parent shown.

Block 1
Target: Ras GTPase-activating protein-binding protein 1, C-terminal RGG region (G3BP1, Homo sapiens, UniProt Q13283)
Chain of UniProt Q13283 (whole entry, looked up): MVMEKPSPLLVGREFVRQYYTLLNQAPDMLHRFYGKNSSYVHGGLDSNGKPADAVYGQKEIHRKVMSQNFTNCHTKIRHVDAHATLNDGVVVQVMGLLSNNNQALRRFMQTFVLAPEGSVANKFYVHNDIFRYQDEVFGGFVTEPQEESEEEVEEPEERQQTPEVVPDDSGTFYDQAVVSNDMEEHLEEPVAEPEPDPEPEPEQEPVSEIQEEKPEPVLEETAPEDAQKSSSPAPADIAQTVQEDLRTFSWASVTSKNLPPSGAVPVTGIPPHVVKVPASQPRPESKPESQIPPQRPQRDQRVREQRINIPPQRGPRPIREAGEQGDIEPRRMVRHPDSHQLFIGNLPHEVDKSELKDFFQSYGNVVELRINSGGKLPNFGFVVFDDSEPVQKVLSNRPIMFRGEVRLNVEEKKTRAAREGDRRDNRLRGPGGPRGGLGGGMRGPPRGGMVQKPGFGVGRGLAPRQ
Technique: RNA Bind-n-Seq
Form: RNA
Medium: in vitro
Concentration: 1 µM
Setting: whole 134-nt RNA, ends assumed
Together with: 150 mM KCl
Baseline: input library
Reading: higher = stronger binding
Shared flanks, not repeated: GGGAGUUCUACAGUCCGACGAUC … UGGAAUUCUCGGGUGUCAAGG
| Oligonucleotide | log2 enrichment |
| --- | --- |
| UGGCCCUGGUGGCAUGCGGGGAGGAAGAGGUGGCCUCAUGGAUCGUGGUUGUCCCGGUGGAAUGUUCAGAGGUGGCCGUGGUGGAGACAG | 1.3 |
| GCAGGAAGUAAAAACAAAUGGAAAUGCUUCGGAUAGUGGCAGGGGUGGGGGUUGCCAAGGAAAGGGUGGGAUGGGAGUGGGUAAAGAGUU | 2.22 |
| UCAAGUCCUGUGCUACACAUCGUAUGUACCGAAUCGGGAAGGGGAAGGGGAAGGAAAGUAUUAUGUUACGCCGUUCGGAUCUGCACUUCC | -0.678 |
| UCCAGUCUAGCUUUGGAGAAGCGCCAACCUGCUCACUGCCGCCGACCAGACUGCAUGUUUGGUUGUACUUGUUUGAAAAGAAAAGUUGUA | -1.03 |
| GUCCUGUGCUACACAUCGUAUGUACCGAAUCGGAAAAAGGGGAAAAAGGAAAAAGGGGAAAGUAUUAUGUUACGCCGUUCGGAUCUGCAC | -1.04 |
| CACAGACAACACGCACCCACACAGACACAGAGGGAAGGGGUUGGGAUGGGGACAGGGUGCACAGCAGGGCGAGGUAGGACCCCAGCCCCU | -0.373 |
| ACCAUGCAGGUGGGCAUCUUUGGGAAGUGGGGCAAGGGGGGGAUAGGGAGGGGGGUAACACCUUGGGAACAGGUGGUCCCAGGUCGUUUC | 2.26 |
| UGCAGUCGAGCCAGCACCUGUUUCUGGACCUGCCUAAGGUAAGUGAGCUUUUCUCUCAACCUAGUUUUCAGGAGGCCUCUUCUGUCCCCU | -0.105 |
| CUCAGCAGACCCUGAAGGACACUUUGAGACACCAAUCUGGAUUGAGCGGGUGGUGAUAAUAGGGGCUGGAAAGCCAGCAGCUGUGGUACU | -0.606 |

Block 2
Target: ABI1, truncated, D143A, DHFR fusion (Arabidopsis thaliana)
Technique: DHFR PCA, deep sequencing
Medium: yeast
Setting: methotrexate growth selection, single substitutions
Together with: (+)-ABA 17 µM
Baseline: wild-type fitted maximum
Reading: higher = stronger binding
Starting sequence: PYL1, truncated, DHFR fusion (Arabidopsis thaliana); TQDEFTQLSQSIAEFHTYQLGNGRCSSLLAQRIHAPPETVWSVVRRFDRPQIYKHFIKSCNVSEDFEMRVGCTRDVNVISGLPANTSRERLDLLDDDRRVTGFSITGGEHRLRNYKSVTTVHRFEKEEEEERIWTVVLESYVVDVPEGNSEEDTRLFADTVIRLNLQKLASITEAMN
| Change | relative binding score |
| --- | --- |
| A175C | 84.1% |
| D97Y | 67.1% |
| D75G | 43% |
| E109G | 53.3% |
| L138F | 76% |
| V121Y | -13.7% |
| R155I | 81.1% |
| S42Y | 44.6% |
| S150I | 20.6% |
| S150H | 39.1% |
| I57L | 73.3% |
| F56N | 0.488% |
| D159T | 30.2% |
| L20A | 89.4% |

Block 3
Target: CCNF, cyclin fold, Cln2 fusion (human)
Technique: yeast growth competition, sequencing
Medium: yeast
Setting: strong parent motif
Baseline: not given
Reading: higher = stronger binding
Starting sequence: INSM1 docking peptide (human); PKAIRKLHFEDEV
| Change | normalised enrichment score |
| --- | --- |
| PKHIRKLHFEDEV [A3H] | 5.73 |
| PKAIRKLHREDEV [F9R] | 0.116 |
| PKAIRKLHFEDNV [E12N] | 7.66 |
| PKAISKLHFEDEV [R5S] | 0.793 |
| PKAIRKDHFEDEV [L7D] | -0.117 |
| PKAIRKQHFEDEV [L7Q] | 0.145 |
| PKAIRKLHFEGEV [D11G] | 7.62 |
| PKAIRKLHFEDGV [E12G] | 7.73 |
| PKAIWKLHFEDEV [R5W] | -0.0951 |
| PKEIRKLHFEDEV [A3E] | 5.57 |
| PKAIRKLHFEDYV [E12Y] | 7.64 |
| PKAIRKLEFEDEV [H8E] | 6.85 |
| PKAIRKLHVEDEV [F9V] | 0.908 |
| PCAIRKLHFEDEV [K2C] | 7.39 |
| PKAIRKLHHEDEV [F9H] | 0.341 |
| PSAIRKLHFEDEV [K2S] | 7.33 |
| PHAIRKLHFEDEV [K2H] | 7.29 |

Other studies, line by line
| Substance | target | test | system | conditions | scale | endpoint | value |
| --- | --- | --- | --- | --- | --- | --- | --- |
| PhoQ, residues 284 288 289 292 302 303 SMYGEC | PhoP, residues 12 14 15 18 19 QWHVF (Escherichia coli, UniProt P23836) | Sort-seq, measured: YFP reporter | E. coli | PhoQ-PhoP variant library, together with: 10 µM Mg2+ | baseline: high Mg2+ state, higher = stronger signaling | fold induction | 2.11 |

For quick reference, copied from above (block 3):
| Change | normalised enrichment score |
| --- | --- |
| PKAIRKLHFEDYV [E12Y] | 7.64 |
| PKAIRKLEFEDEV [H8E] | 6.85 |
| PKAIRKLHVEDEV [F9V] | 0.908 |
